Experimental data from different studies.
Protocols differ between the studies behind these lines. ± gives the spread as reported.

CCCC[C@H](NC(=O)COCCOCCNC(=O)CN1CCN(CC(=O)O)CCN(CC(=O)O)CC1)C(=O)N[C@H]1CC(=O)NCCCC[C@@H](C(N)=O)NC(=O)[C@H](Cc2c[nH]c3ccccc23)NC(=O)[C@H](CCCNC(=N)N)NC(=O)[C@@H](Cc2ccccc2)NC(=O)[C@H](Cc2c[nH]cn2)NC1=O [copper-64 labelled]  tissue uptake (C57 mice, skin; intravenous, 0.37 MBq, 24 h): 0.18 ± 0.16 %ID/g
N=C(N)NCCC[C@@H]1NC(=O)[C@H](CCCCNC(=O)CC[C@H](NC(=O)CC[C@H](NC(=O)CN2CCN(CC(=O)O)CCN(CC(=O)O)CCN(CC(=O)O)CC2)C(=O)N[C@@H](CCC(=O)NCCCC[C@@H]2NC(=O)[C@@H](Cc3ccccc3)NC(=O)[C@H](CC(=O)O)NC(=O)CNC(=O)[C@H](CCCNC(=N)N)NC2=O)C(=O)NCCCC[C@@H]2NC(=O)[C@@H](Cc3ccccc3)NC(=O)[C@H](CC(=O)O)NC(=O)CNC(=O)[C@H](CCCNC(=N)N)NC2=O)C(=O)NCCCC[C@@H]2NC(=O)[C@@H](Cc3ccccc3)NC(=O)[C@H](CC(=O)O)NC(=O)CNC(=O)[C@H](CCCNC(=N)N)NC2=O)NC(=O)[C@@H](Cc2ccccc2)NC(=O)[C@H](CC(=O)O)NC(=O)CNC1=O [indium-111 labelled]  tissue uptake (female athymic nu/nu mice, liver; intravenous, 72 h): 1.62 ± 0.4 %ID/g
CCCCCCCC/C=C\CCCCCCCC(=O)OC[C@H](NC(=O)[C@H](Cc1c[nH]c2ccccc12)NC(=O)[C@H](Cc1c[nH]cn1)NC(=O)[C@@H]1CCC(=O)N1)C(=O)N[C@@H](Cc1ccc(O)cc1)C(=O)N[C@H](CC(C)C)C(=O)N[C@@H](CC(C)C)C(=O)N[C@@H](CCCNC(=N)N)C(=O)N1CCC[C@H]1C(=O)NCC  critical aggregation concentration (deionized water): 12.2 µg/mL
CCCC[C@H](NC(=O)CNC(=O)CNC(=O)CN1CCN(CC(=O)O)CCN(CC(=O)O)CCN(CC(=O)O)CC1)C(=O)N[C@H]1CC(=O)NCCCC[C@@H](C(N)=O)NC(=O)[C@H](Cc2c[nH]c3ccccc23)NC(=O)[C@H](CCCNC(=N)N)NC(=O)[C@@H](Cc2ccccc2)NC(=O)[C@H](Cc2c[nH]cn2)NC1=O [lutetium-177 labelled]  tissue uptake (C57 mouse, female, skin; intravenous, 0.037 MBq, 24 h): 0.33 ± 0.06 %ID/g
N=C(N)NCCC[C@@H]1NC(=O)[C@H](CCCCNC(=O)CNC(=O)CNC(=O)CNC(=O)CC[C@H](NC(=O)CNC(=O)CNC(=O)CNC(=O)CC[C@H](NC(=O)CN2CCN(CC(=O)O)CCN(CC(=O)O)CCN(CC(=O)O)CC2)C(=O)NCC(=O)NCC(=O)NCC(=O)N[C@@H](CCC(=O)NCC(=O)NCC(=O)NCC(=O)NCCCC[C@@H]2NC(=O)[C@@H](Cc3ccccc3)NC(=O)[C@H](CC(=O)O)NC(=O)CNC(=O)[C@H](CCCNC(=N)N)NC2=O)C(=O)NCC(=O)NCC(=O)NCC(=O)NCCCC[C@@H]2NC(=O)[C@@H](Cc3ccccc3)NC(=O)[C@H](CC(=O)O)NC(=O)CNC(=O)[C@H](CCCNC(=N)N)NC2=O)C(=O)NCC(=O)NCC(=O)NCC(=O)NCCCC[C@@H]2NC(=O)[C@@H](Cc3ccccc3)NC(=O)[C@H](CC(=O)O)NC(=O)CNC(=O)[C@H](CCCNC(=N)N)NC2=O)NC(=O)[C@@H](Cc2ccccc2)NC(=O)[C@H](CC(=O)O)NC(=O)CNC1=O [indium-111 labelled]  tissue uptake (female athymic nu/nu mice, U87MG tumour; intravenous, 111 kBq, 0.5 h): 12.7 ± 1.25 %ID/g
COc1ccc2cc([C@H](C)C(=O)N[C@H](Cc3ccccc3)C(=O)N[C@H](Cc3ccccc3)C(=O)N[C@H](CCCCN)C(=O)N[C@H](Cc3ccc(O)cc3)C(=O)O)ccc2c1  critical strain (oscillatory rheology; hydrogel 0.8 wt%): 5.5%
CCCC[C@H](NC(=O)CNC(=O)CNC(=O)CN1CCN(CC(=O)O)CCN(CC(=O)O)CC1)C(=O)N[C@H]1CC(=O)NCCCC[C@@H](C(N)=O)NC(=O)[C@H](Cc2c[nH]c3ccccc23)NC(=O)[C@H](CCCNC(=N)N)NC(=O)[C@@H](Cc2ccccc2)NC(=O)[C@H](Cc2c[nH]cn2)NC1=O [technetium-99m labelled]  tissue uptake (C57 mouse, spleen; iv, 0.037 MBq, 0.5 h): 0.76 ± 0.48 %ID/g
CCCC[C@H](NC(=O)CCCCCCCNC(=O)CN1CCN(CC(=O)O)CCN(CC(=O)O)CC1)C(=O)N[C@H]1CC(=O)NCCCC[C@@H](C(N)=O)NC(=O)[C@H](Cc2c[nH]c3ccccc23)NC(=O)[C@H](CCCNC(=N)N)NC(=O)[C@@H](Cc2ccccc2)NC(=O)[C@H](Cc2c[nH]cn2)NC1=O [copper-64 labelled]  tissue uptake (C57 mice, blood; intravenous, 0.37 MBq, 4 h): 0.18 ± 0.07 %ID/g
Cc1cc(-c2ccc(NC(=O)[C@H](CCCCNC(=O)CCOCCOCCC(=O)N[C@H](Cc3ccccc3)C(=O)N[C@H]3CSSC[C@@H](C(=O)N[C@H](C(=O)O)[C@@H](C)O)NC(=O)[C@H]([C@@H](C)O)NC(=O)[C@H](CCCCN)NC(=O)[C@@H](Cc4c[nH]c5ccccc45)NC(=O)[C@H](Cc4ccc(O)cc4)NC3=O)NC(=O)CN3CCN(CC(=O)O)CCN(CC(=O)O)CCN(CC(=O)O)CC3)c(C)c2)ccc1N=Nc1ccc2c(S(=O)(=O)O)cc(S(=O)(=O)O)c(N)c2c1O [lutetium-177 labelled]  absorbed dose (metastatic NET patients, liver metastases): 3.33 ± 0.78 Gy/GBq
N=C(N)NCCC[C@@H]1NC(=O)[C@H](CCCCNC(=O)CNC(=O)CNC(=O)CNC(=O)CC[C@H](NC(=O)CNC(=O)CNC(=O)CNC(=O)CN2CCN(CC(=O)O)CCN(CC(=O)O)CCN(CC(=O)O)CC2)C(=O)NCC(=O)NCC(=O)NCC(=O)NCCCC[C@@H]2NC(=O)[C@@H](Cc3ccccc3)NC(=O)[C@H](CC(=O)O)NC(=O)CNC(=O)[C@H](CCCNC(=N)N)NC2=O)NC(=O)[C@@H](Cc2ccccc2)NC(=O)[C@H](CC(=O)O)NC(=O)CNC1=O [indium-111 labelled]  tissue uptake (female athymic nu/nu mice, muscle; intravenous, 111 kBq, 24 h): 0.3 ± 0.09 %ID/g
